# Assay results from different studies.
# Each line is one published result; not all experiments were run side by side. Values joined by “and” are separate records of one study, mostly repeats; a detail may differ. ± gives the spread as reported.
Structure (SMILES),tested on,test,system,setting,scale,measurement,result
Cc1cc(C(=O)NC(C)(C)COc2cccc3c2C(N)=NS(=O)(=O)N3)cc(C)n1,human peripheral blood lymphocytes,in vitro micronucleus test,0.4% DMSO,"2000 µg/mL, 4 h",,micronucleated binucleated cells,0.3%
C[C@@H](c1ncncc1F)[C@](O)(Cn1cncn1)c1ccc(F)cc1F,MDCK,,,"1 µM, 90 min, pH 6.5 apical, 7.4 basolateral, apical to basolateral",,mass recovery,101 ± 15%
O=C(O)Cc1c[nH]c2ccc(O)cc12,HCT-8 infected with Cryptosporidium parvum,Hoechst nuclei count,,"1 mM, 24 h",reference: PBS,host cell number,0.968 ± 0.046
CC(C)C[C@H](NC(=O)C[C@H](O)[C@H](CC(C)C)NC(=O)[C@H](Cc1c[nH]cn1)NC(=O)CNC(=O)[C@@H](NC(=O)[C@H](C)NC(=O)[C@H](Cc1c[nH]c2ccccc12)NC(=O)[C@H](CCC(N)=O)NC(=O)[C@@H](Cc1ccccc1)NC(=O)COCCOCCNC(=O)CCC(C(=O)O)N1CCN(CC(=O)O)CCN(CC(=O)O)CC1)C(C)C)C(N)=O (some centres unmarked) [lutetium-177 labelled],,,"female BALB/c nu/nu mice, liver","intravenous, 50 pmol, 24 h",,tissue uptake,0.12 ± 0.03 %ID/g
O=C(NN=Cc1ccc(O)cc1)c1nc2ccccc2s1,BJ-1 fibroblasts,MTT,,"100 µM, 48 h",,cytotoxicity,24.9%
COc1ccc(S(=O)(=O)ON=C2C=C(C)C(=O)C(C)=C2)cc1,SK-BR-3,cell viability,,,,CC50,11.6 µM
Cc1cccc(C(=O)O)c1,HCT-8 infected with Cryptosporidium parvum,Hoechst nuclei count,,"1 mM, 24 h",reference: PBS,host cell number,0.982 ± 0.048
O=C(NCc1cc(O)c(O)c(Br)c1)c1cccc(CCl)c1,Vero-E6,CCK-8,,24 h,,CC50,72.5 ± 14.4 µM
COc1ccc(C[C@H]2CO[C@H](c3ccc(OC)c(OC)c3)[C@H]2COC(=O)CC(C)C)cc1OC,HEK293/NF-κB-luc,CellTracker Green CMFDA,,"20 µM, 4.5 h, serum-free medium",reference: stimulated untreated cells,viability,119 ± 6%
CCC(=CCc1c(O)cc2c(c1O)C(=O)CC(c1ccc(O)cc1)O2)CC (stereo in doubt),HeLa,"cytotoxicity, MTT",,"48 h, together with: S9 fraction",,log IC50,1.28 log µM
NC(=O)Cc1c[nH]c2ccccc12,HCT-8 infected with Cryptosporidium parvum,Hoechst nuclei count,,"1 mM, 24 h",reference: PBS,host cell number,0.955 ± 0.046
CC(=O)Oc1ccccc1C(=O)O,human iPSC-derived cardiomyocytes,,,100 µM,,beat rate,44.2 ± 1.3 min⁻¹
CCn1c(=O)c2c(nc(/C=C/c3ccc(OC)c(OC)c3)n2C)n(CC)c1=O,MDCK,permeability basolateral to apical,,"1 µM, 90 min, pH 6.5 apical to 7.4 basolateral",,Papp,31.2 ×10⁻⁶ cm/s and 40.6 ×10⁻⁶ cm/s
C=C1C(=O)O[C@H]2[C@H]1CC/C(C)=C/CC[C@@]1(C)O[C@@H]21,MYBPC3 iPSC cardiomyocytes,cytotoxicity,,24 h,,EC50,60.8 µM
C[C@H](CCC(=O)O)[C@H]1CC[C@H]2[C@@H]3CC[C@@H]4C[C@H](O)CC[C@]4(C)[C@H]3CC[C@]12C,HCT-8 infected with Cryptosporidium parvum,Hoechst nuclei count,,"0.1 mM, 24 h",reference: PBS,host cell number,0.923 ± 0.111
N.O=C(Nc1nc2ccccc2s1)NS(=O)(=O)O,MDCK-MDR1,,,MDR1 inhibited,,Papp,0.024 ×10⁻⁶ cm/s
O=C(Nc1ccc2c(c1)OC(F)(F)O2)Nc1ccc(Cl)c(C(F)(F)F)c1,NIH/3T3,,,24 h,,CC50,7.93 µM
O=c1[nH]c(=O)c2c[nH]nc2[nH]1,HCT-8 infected with Cryptosporidium parvum,Hoechst nuclei count,,"1 mM, 24 h",reference: PBS,host cell number,0.965 ± 0.056
CC(=O)Nc1ccc(O)cc1,MDCK,,,"1 µM, 90 min, pH 7.4 apical, 7.4 basolateral, basolateral to apical",,mass recovery,83 ± 10%
C[C@H]1[C@H](OC(=O)CCC(=O)O)O[C@@H]2O[C@@]3(C)CC[C@H]4[C@H](C)CC[C@@H]1[C@@]24OO3,human iPSC-derived cardiomyocytes,cell viability,,,,highest non-toxic concentration,> 50 µM
CCCC(CCC)NC(=O)c1ccc2c(c1)OCO2,CHO-WBL,,,"1.67 mg/mL, 3 h, with rat liver S9",,cells with aberrations,0%
COc1ccc(C=NNC(=O)c2nc3ccccc3s2)cc1OS(C)(=O)=O,BJ-1 fibroblasts,MTT,,"100 µM, 48 h",,cytotoxicity,43.5%
O=c1cc[nH]c(=O)[nH]1,HCT-8 infected with Cryptosporidium parvum,Hoechst nuclei count,,"1 mM, 24 h",reference: PBS,host cell number,0.992 ± 0.021
Cc1ccc(Nc2cnnc3ccc(-c4ccc(N5CCCN(C)CC5)cc4)cc23)cn1,B10R mouse macrophages,cytotoxicity,,,,TC50,> 10 µM
COc1ccc(C[C@H]2CO[C@H](c3ccc(OC)c(OC)c3)[C@H]2COC(=O)C=C(C)C)cc1OC,HEK293/NF-κB-luc,CellTracker Green CMFDA,,"20 µM, 4.5 h, serum-free medium",reference: stimulated untreated cells,viability,108 ± 5%
Cc1c(C)c2c(c(C)c1O)CCC(C)(COc1ccc(CC3SC(=O)NC3=O)cc1)O2 (centres unmarked),"THLE-2, 3D culture",MTT,,"100 µM, 96 h",,viability,43.3%
CC(C)C[C@H](NC(=O)[C@H](CC(C)C)NC(=O)[C@H](CCCNC(=N)N)NC(=O)[C@H](CCCCN)NC(=O)[C@H](CCCNC(=N)N)NC(=O)[C@H](CC(C)C)NC(=O)[C@H](CCCCN)NC(=O)[C@H](CCCNC(=N)N)NC(=O)[C@H](CC(C)C)NC(=O)[C@H](CC(C)C)NC(=O)[C@H](CC(C)C)NC(=O)[C@H](CCCNC(=N)N)NC(=O)[C@H](CCCCN)NC(=O)[C@H](CCCNC(=N)N)NC(=O)[C@H](CC(C)C)NC(=O)[C@H](CCCCN)NC(=O)[C@H](CCCNC(=N)N)NC(=O)[C@H](CC(C)C)NC(=O)CNC(=O)CNC(=O)CNC(=O)c1ccc2c(c1)C(=O)OC21c2ccc(O)cc2Oc2cc(O)ccc21)C(N)=O,hCMEC/D3 monolayers,"BBB permeability, Transwell, item: CF-labelled compound",EGM-2 medium,"concentration not given, 3 h, apical to basal",reference: fluorescence added apically,transport ratio,13.7%
Cc1cnc(Nc2ccc(OCCN3CCCC3)cc2)nc1Nc1cccc(S(=O)(=O)NC(C)(C)C)c1,MDCK,,,"1 µM, 90 min, pH 7.4 apical, 7.4 basolateral, basolateral to apical",,mass recovery,78 ± 3%
O=C(O)c1ccc(NS(=O)(=O)c2ccc(Cl)c(Cl)c2)c2ncccc12,RRCK cells,passive permeability,,,,apparent permeability,15 ×10⁻⁶ cm/s
NC(=O)NCCC[C@H](N)C(=O)O,HCT-8 infected with Cryptosporidium parvum,Hoechst nuclei count,,"1 mM, 24 h",reference: PBS,host cell number,1.01 ± 0.055
CC(C)=CCC[C@@]1(C)C(CC[C@H]2[C@]3(C)CC[C@H](O)C(C)(C)O[C@H]3CC[C@@]2(C)O)=C(C)CC[C@H]1O,KB-V1 (P-gp overexpressing),"cell viability, MTT",DMEM with 10% bovine serum,72 h,,IC50,> 50 µM
N[C@@H](Cc1cc(I)c(Oc2cc(I)c(O)c(I)c2)c(I)c1)C(=O)O,MDCK low-efflux,,,,,Papp (A to B),1.2 ×10⁻⁶ cm/s
O=C(O)CCCOc1ccc(F)cc1-c1cc(-c2ccccc2C(F)(F)F)n(-c2ccccc2)n1,human iPSC-derived cardiomyocytes,,,2 µM,,beat rate,46.8 ± 1.9 min⁻¹
CN1CCN(c2ncc(-c3ccc4nncc(Nc5ncc(Cl)cn5)c4c3)cn2)CC1,B10R mouse macrophages,cytotoxicity,,,,TC50,3.5 µM
CCOc1c([C@H](C)n2nc(C)c3c(N)ncnc32)cc(Cl)c(F)c1[C@@H]1CNC(=O)C1,,,"patients, monotherapy","oral, 10 mg once daily, cycle 1 day 15",,half-life geometric mean,9.78 h
C[C@H]1O[C@@H](O[C@H]2[C@@H](O)C[C@H](O[C@H]3[C@@H](O)C[C@H](O[C@H]4CC[C@@]5(C)[C@H](CC[C@@H]6[C@@H]5C[C@@H](O)[C@]5(C)[C@@H](C7=CC(=O)OC7)CC[C@]65O)C4)O[C@@H]3C)O[C@@H]2C)C[C@H](O)[C@@H]1O,MDCK-MDR1 cells,,,"5 µM, pH 7.4",,Papp B to A,22.2 ×10⁻⁶ cm/s
CC(=O)Nc1cccc(-n2c(=O)n(C3CC3)c(=O)c3c(Nc4ccc(I)cc4F)n(C)c(=O)c(C)c32)c1,MeWo,resazurin,,"50.00 nM, 72 h, unit not given",reference: DMSO,viability,0.548 and 0.522
CC(C)C[C@H](NC(=O)C[C@H](O)[C@H](CC(C)C)NC(=O)[C@H](Cc1c[nH]cn1)NC(=O)CNC(=O)[C@@H](NC(=O)[C@H](C)NC(=O)[C@H](Cc1c[nH]c2ccccc12)NC(=O)[C@H](CCC(N)=O)NC(=O)[C@@H](Cc1ccccc1)NC(=O)COCCOCCNC(=O)CCC(C(=O)O)N1CCN(CC(=O)O)CCN(CC(=O)O)CCN(CC(=O)O)CC1)C(C)C)C(N)=O (some centres unmarked) [lutetium-177 labelled],,,"female BALB/c nu/nu mice, liver","intravenous, 100 pmol, 2 h, together with: PA 300 µg",,tissue uptake,0.21 ± 0.08 %ID/g
Cc1noc(C)c1Cn1cc(N2C(=O)CN(Cc3cccc(O)c3)C2=O)cn1,human blood lymphocytes,,,"494.3 µg/mL, 3 h, with 2% S9",,aberrant cells with gaps,0%
CS(=O)(=O)Oc1ccc(C=NNC(=O)c2nc3ccccc3s2)cc1,BJ-1 fibroblasts,MTT,,"100 µM, 48 h",,cytotoxicity,62.3%
CC[C@H](CO)N(CCN(N=O)[C@H](CC)CO)N=O,Escherichia coli,"mutagenicity, Ames plate incorporation",WP2 uvrA pKM101,"2500 µg/plate, without S9, methanol",,revertant colonies per plate,140 ± 11
CC(C)n1nccc1-c1ncccc1COc1cccc(O)c1C=O,MDCK,,,"1 µM, 90 min, pH 6.5 apical, 7.4 basolateral, apical to basolateral",,mass recovery,82 ± 4%
NCCCC(=O)O,HCT-8 infected with Cryptosporidium parvum,Hoechst nuclei count,,"1 mM, 24 h",reference: PBS,host cell number,0.975 ± 0.052
CCN1/C(=C/C(C)=O)Sc2ccc(F)cc21,,,cynomolgus monkey,"oral, 10 mg/kg, 1 h post-dose",,mean blood pressure,86 ± 5 mmHg
Cn1cncc1[C@@](N)(c1ccc(Cl)cc1)c1ccc2c(c1)c(-c1cccc(Cl)c1)cc(=O)n2C,C2BBe1 (Caco-2 clone),,,,,Papp,13.3 ×10⁻⁶ cm/s
COc1cc2ncnc(Nc3ccc(Oc4ccccc4)cc3C)c2cc1OC.O=C(O)C(F)(F)F,A-375 (BRAF V600E),,,"0.1 µM, 72 h",,viability,1.11 fraction of control and 0.877 fraction of control
Cn1cc(-c2ccc(-c3cncc(Cl)c3N3CCC4(CCNC4=O)CC3)cc2)cn1,COLO 205,"gene expression, microarray, item: NFATC2 mRNA",,"concentration not given, 2 h",reference: untreated cells,log2 fold change,2.92
